Measurements pooled from the literature.
Protocols differ between the studies behind these lines. “And” joins repeats or separate records; there may be more than shown. ± marks the error that the study gave.

| SMILES | cell line | test | conditions | viability |
| --- | --- | --- | --- | --- |
| Cc1ccc(-n2cc(CSc3nc4ccccc4n3Cc3cn(-c4ccc(C)cc4)nn3)nn2)cc1 | HEK293 | MTT | 15.6 ppm | 77% |
| COc1cc(Oc2c(O)cc(C)c(Br)c2OC)c(C(=O)O)c(C)c1O | T47D | MTT | 10 or 50 µM, 48 h | 112 ± 4.7% |
| COc1ccc(Cn2cc(CCO[C@@H]3O[C@H]4[C@H](OC[C@H]4O)[C@H]3O)nn2)cc1 | HCT-116 | cytotoxicity, CellTiter-Glo | up to 30 µM, 72 h | not toxic |
| COc1cc(N2CCN(C(=O)C3CCCN3)CC2)ccc1Nc1ncc(Cl)c(Nc2ccccc2P(C)(C)=O)n1 (stereo not shown) | Ba/F3 EML4-ALK | cell growth or viability, CCK-8 | 1 µM, 30 min | 99% and 97% and 100% |
| CN1CCCNC(=O)c2cccc(c2)C(=O)NCCCN(C)CCCNc2cccc3c2C(=O)c2cccc(c2C3=O)NCCC1 | HSC-2 | cell growth or viability, CCK-8 | 1 nM, 48 h | 103% |
| Cc1cc(Cl)cc(-c2ccnc3cc(CN4C(=O)C5C(C4=O)C5(C)C)sc23)c1C[C@@H]1CNCCO1 (stereo partly shown) | CHP-212 | SRB | 0.1562 µM, single replicate | 79.2% and 103% and 96.5% |
| COc1cc(Oc2c(O)cc(C)cc2OC)c(C(=O)O)c(C)c1O | T47D | MTT | 10 or 50 µM, 48 h | 106 ± 5.8% |
| CC1(C)C(=CC=C2CCCC(C=CC3=[N+](CCC[N+](C)(C)C)c4ccc(S(=O)(=O)O)cc4C3(C)C)=C2SCCOCCOCCC(=O)O)N(CCC[N+](C)(C)C)c2ccc(S(=O)(=O)O)cc21 | H-1793 | MTT | up to 100 µM | ~100% |
| COc1cc(Oc2c(OC)cc(C)c(Br)c2O)c(C(=O)O)c(C)c1O | T47D | MTT | 10 or 50 µM, 48 h | 112 ± 10% |
| [BH3-][P+]1(c2ccccc2)CCCCC1 | HCT-116 | trypan blue | IC50, 72 h | 95.3% |
